Results from different studies.
Every numbered part comes from another study and shows a few of its results, in no order.

Set 1
Target: Phosphate system positive regulatory protein PHO4, full length, GST-tagged (PHO4, Saccharomyces cerevisiae, UniProt P07270, residues 1-312)
Technique: competition protein-binding microarray
Form: double-stranded DNA, one strand shown
Sample: in vitro
Concentration: 2 µM
Notes: whole 60-bp probe, lowest competitor level
Added: Cbf1 competitor, 0.05 µM
Direction: higher = stronger binding
All sequences stand within: … GTCTTGATTCGCTTGACGCTGCTG
Residues (chain): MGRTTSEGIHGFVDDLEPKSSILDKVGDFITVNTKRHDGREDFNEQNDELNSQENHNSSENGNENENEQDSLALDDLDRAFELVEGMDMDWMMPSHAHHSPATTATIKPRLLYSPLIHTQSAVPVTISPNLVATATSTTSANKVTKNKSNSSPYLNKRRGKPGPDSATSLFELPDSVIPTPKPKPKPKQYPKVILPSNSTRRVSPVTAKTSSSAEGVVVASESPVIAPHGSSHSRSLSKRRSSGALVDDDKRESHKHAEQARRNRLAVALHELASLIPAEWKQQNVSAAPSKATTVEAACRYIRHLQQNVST
Strand | fluorescence intensity [a.u.]
CTAACGAAGGTTTGCAATGTGGGTGACAAGCCAAGT | 5310
GTCTTGTCTCATTGTCACGAAACTTTCCCCACTTCA | 4020
AGGCTGCTTGATGTATTCGTGCGGAAAAAAAAAAAG | 6820
GTCTTGTCTCATTGTGCAGTGGGTGTCCCCACTTCA | 5520
CAAGTTCCGGGGCGTCACATGGAAACAATGGCACTT | 6480
TGCGCAACAACTTGCAATGTGGGTGTATGTCTAGAA | 6370
CTTCTGTAAATTTGGAGAGTGGGTGGACGCGCCCCG | 3990
CTCCATATGGTACTATCACTTCTGCAAAGGTTATGA | 4320
CTTCTGTAAATTTGTCACGTGACTTGACGCGCCCCG | 12900
AACGGTTGATTCATTAATGTGATGACTGTTCACCCT | 3360
AGCAACCGCACACAGAATGTGACGGCAAATGCATTT | 5050
CTTCTCGCGGTGGTGCCCGTGGTTACTCCAGAGGTG | 9010
AAGTGTATGGGTCCACGCGTGTTTTGTGCAGTGTAT | 10600
CGGGGTTAAGTTTGTCCCGTGGGTGGCTTGCAGCAG | 8570
AAGTTCGCCAAGTTACACATGGGTACTGATGATGTC | 7630
GTTACCCGGTCGAGTCACGTGCGGATGCGGAGGGCA | 18100
TGCAGCATCCAGCTTCCCGTGTATCCATACCACCCT | 5610
TGCGCAACAACTTGAGAAGTGGGTGTATGTCTAGAA | 4430
CGTCTAGCAATACCGCACATGTTATTTGTGCTGTAG | 11600
ATTCTGGGATGCCCTGTCGTGGGTACAGTTGCCACA | 6350
CATACCCAACCTTTTCACGTGCATTAAGATATTTGT | 14400
CGTCCTAGCGATTGATTTGTGGGTGCCATGAGGAAG | 7110
AAAGCGGTAATTTGTAAAGTGGGTGCAGATATCTAT | 3640
CGTAAAAGAGAAAAGATCGTGCTTTCATCAAGCGCT | 8740
TCCGAAATGCGATAAGTCGTGATGGGGTTACCTCGA | 4070

Set 2
Target: RNA binding protein fox-1 homolog 2, RRM domain, GST-SBP tag (RBFOX2, Homo sapiens, UniProt O43251-10, residues 100-194)
Technique: RNA Bind-n-Seq
Form: RNA
Sample: in vitro
Concentration: 365 nM
Notes: natural RNA segment, single round, ends assumed
Reference: no-protein control
Direction: higher = stronger binding
All sequences stand within: GGGAGUUCUACAGUCCGACGAUC … UGGAAUUCUCGGGUGCCAA
Target sequence (chain): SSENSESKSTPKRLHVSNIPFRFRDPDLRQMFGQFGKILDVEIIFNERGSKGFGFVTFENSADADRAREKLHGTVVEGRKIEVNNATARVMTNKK
Strand | RBNS enrichment (R)
UUCUCCUGUCCUUUUCUUGGCUGGAAGAAGUUGGCCUCCUGGGAGUGUAGUUUUCUGUUUUAAAUCCCCCACCCCUGGCUGGGCUCAGUGGCUCACCCCUGUAAUCCCAG | 0.346
CUGUAUAUAUCAGAUGAGCAGUGAUGACUUCUAUAACUGUUGGCUUUAAUAUUUUUCAUUUAGCUAUAUAAUAAAAUUCACUAGGAAAAUCAUUUAAAGUUGAAAGAAAA | 0.698
UUUUCUUCCCUAGAGGCAUUGAGGGCAAUUGCACUUUGGCUCUCUCAAGAUGUGUCAUUUUCAGACAUUCUUCAUGUCAGAAGAGCUUUUGUUGUAAGGAGAAAACCAGC | 1.66
UGAGAGCAGAGAGUUUGGGAGGGGGUGAAGAGAAAACAACAUCACCAAAUAGUGAUAUAUAAGAGAAAAUCUGUGCUUCAGAGUUUGAUCAGGGCCAUCUCUCCCAACUC | 0.532
AAUCAGACUGAGGAAGCUGUGACAUAGGACUUGAAGACCAAAGACUUUGAAAUUUGCGAGCUGCUCAUGUGUGAGUUAUUAUCACUGCUGUCUUUCUAUUGAGUUACAAA | 0.796
UCUCAGUGCAUGCUGUGCUUUUUCACAUUUGCUCUGGGUUAUCUGGGAAGUAUCAGGUUCUGGGAGGCAACAGCAUUAAGUGAUAAGAAAAGGAGACAUUCUGGCAAAGC | 2.09
AGGGCGGAGCCAUCCAGAGCUCUCAGAAUGGAUGCUGCCGGCAUCACCGCCCCCACCCCACCCUCAGGCUGGAGCUCUGGGUGUGGGCAGGGACUGUGGCCCUGGAUUGC | 1.27
UUCCCUGGACUGAGCUCAGCGCAGGCUGUGACCCCAGGAGGGCCCUGCCACGGGCCACUGGCUGCUGGGGACUGGGGACUGGGCAGAGACUGAGCCAGGCAGGAAGGCAG | 0.242
CUACCAGAUUCUGCCUAUGUAAAAUGAAUUGAAAAACAAUUUUCUGUAAUCUUUUAUUUAAGUAGUGGGCAUUUCAUAGCUUCACAAUGUUCCUUUUUUGUAUAUUACAA | 0.575
UCUUAGUGGCAUCUGCCAAUGAGAUAUCACCUUCCCCCUCUCCUCUUUAAUCUCUUGUUAAAUUACCCCUUUGAUAUUGGUGUCUGUCAGCGUUGGGGCUUCUUAGUAUC | 0.693
CACAGCACCAAACCCAGCUAAGUACAGCGUCUAAACAUUUCUUAAAGCAUAUGAUAUUGGUUUUAAUAUAUUUACCAAAAGUACUAUUGCUUGGAUAUAAAAUCACUGAG | 0.413
CAGACCGAGAGGCCAGUUGAUCUGCUCUGUUUUAUACUAGUGACAAUAAAGAUUAUUUUUUGAUACACCUAUGAGUUCUGUCUGGCAAGGCCUGGCUGGCUGAAUCAAGA | 0.33

Set 3
Target: RING finger protein unkempt homolog, zinc fingers 1-6, SBP tag (UNK, Homo sapiens, UniProt Q9C0B0, residues 30-357)
Sequence of UniProt Q9C0B0 (30-357, looked up): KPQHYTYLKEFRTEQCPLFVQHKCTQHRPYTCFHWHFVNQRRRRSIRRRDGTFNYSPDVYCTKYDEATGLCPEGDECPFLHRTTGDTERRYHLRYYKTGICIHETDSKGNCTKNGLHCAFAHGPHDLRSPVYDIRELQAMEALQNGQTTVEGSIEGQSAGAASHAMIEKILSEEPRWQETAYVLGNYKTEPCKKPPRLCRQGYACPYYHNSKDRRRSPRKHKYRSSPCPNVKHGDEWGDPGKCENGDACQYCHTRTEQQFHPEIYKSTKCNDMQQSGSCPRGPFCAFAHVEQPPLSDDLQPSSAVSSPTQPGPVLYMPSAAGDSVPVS
Technique: RNA Bind-n-Seq
Form: RNA
Sample: in vitro
Concentration: 100 nM
Notes: RNA with constant flanks, vertebrate orthologous sites, ends assumed
Reference: input RNA pool
Direction: higher = stronger binding
All sequences stand within: GGGAGUUCUACAGUCCGACGAUC … CAACAGAGGAUUGAGCAUCA
Strand | bound/input enrichment
UCUACUGACCGCUCACUGUUACGUCUGGGUAUCUGUAAACACUUUUCUUUUUGUUCUUAGUCUUUUUCUUGUAUAAUUGAUGUUCUCUAAAAUUGUUAAUGUUAUCACAGGGCUUAUAUU | 1.71 ratio
AAAGCCAUUUUUUUUCACUUUUCCUGUAAAUAAUGGAUAAUCAUUUUUUAUUUUAUCUUUAAGUGCUGUUUUAACAAUGUGGAUAGACCAUAAAUGUACUUGCUGAAUUCAUUCAUUUUU | 0.497 ratio
AGGAAAUGCUGGCUGCAAACCCUCAGGAUCGUCCAGAUGCUUUUGAACUAGAACUCAGAUUAGUACAAAUUGCAUUUAAAGAUAGCAGCUGGGAGACGUGACACAUAUAUUAUUUGCAAA | 1.16 ratio
AAAUUUAUUUCAUGCCCUGGACUCCCUACCGUACCGAUACAUUAAUAGAGUAUGCUUCUAUAGAAGAUUUCCAAAACAGUCGCCAGACAACAACAUAUAAACUUCCAAAUCGAGUAGAUG | 1.15 ratio
UUGGUUUGGGGUAGAGGGGAGGGAAGGGCAGGAUGGUAUGGAAUCUCUAGGGUAUAUGGGUAGUUAGGGUACACAGUUAGUUCUAAGUGGGCCUUUAUGUUAAAAAUUUUUUGGGAGGUG | 1.37 ratio
GAGGUAUUGAAUAGUAUUAAAGAAACUUACUCGUCUUCCUUUAUCUUUUGUCCCGAUACCUAGUCUACUUUUUAAAAUUUCAAACUUCACUGCUCUUUGAAUUGAUGAUUCCAGUUUUCA | 1.05 ratio
GAAAAUGACGACCACAUAUCACCUCAGUGAGGUGAAGUCUCCUUGGCAUUUGGUUCGUUUUAACGCCAGUGAUUCCUGACAAGUCUUCAUGGGCAUUCACACUCAAAGUCAUCUUUUGAA | 0.424 ratio
UGUGUGGUGCAGCGUGCUCUGGACCAGUGCUCACCAUCCCUUCUUCAUAUCAACUGUCCCUAGUUAUAGCAGUUUAAUAUUUUUAAAAGUUUUACAUUGCUGUAUAUUCAAAGAUUUGUU | 0.559 ratio
AUGGCACCCCCUGUGAGAGGGAGUGGGGGAAGCCCAAGAUGACCCUCAGUUGUUCCAAUCCAGUAUUUUUUCCUUUAAAAAAAAAUUACUGUAUUUAUUAUGACGAUGGUGACUCCCCAA | 0.218 ratio
AAAUUUAUUUCAUGCCCUGGACUCCCUAUCGUACUGAUACUUUAAUAGAAUAUGCAUCUUUAGAAGAUUUCCAAAACAGUCGCCAAACAACAACCUAUAAACUUCCAAAUCGAGUAGAUG | 1.55 ratio
CUAUUGUUAAGCACUGUGUUCCAGACCGUGUCUGACUUUAGCAUAAACUAGGAGAUUUUAUAGUUUUAUUUUAAUGAAGUCCUGCCCAAUGUAGAGCAGCGUCUUCUACGUGUGGCAGCA | 1.56 ratio

Set 4
Target: Interferon regulatory factor 3, full length, phosphomimetic (IRF3, Homo sapiens, UniProt Q14653, residues 1-427, S386D/S396D/S398D/S402D/T404D/S405D)
Sequence of UniProt Q14653 (whole entry, unmodified, looked up): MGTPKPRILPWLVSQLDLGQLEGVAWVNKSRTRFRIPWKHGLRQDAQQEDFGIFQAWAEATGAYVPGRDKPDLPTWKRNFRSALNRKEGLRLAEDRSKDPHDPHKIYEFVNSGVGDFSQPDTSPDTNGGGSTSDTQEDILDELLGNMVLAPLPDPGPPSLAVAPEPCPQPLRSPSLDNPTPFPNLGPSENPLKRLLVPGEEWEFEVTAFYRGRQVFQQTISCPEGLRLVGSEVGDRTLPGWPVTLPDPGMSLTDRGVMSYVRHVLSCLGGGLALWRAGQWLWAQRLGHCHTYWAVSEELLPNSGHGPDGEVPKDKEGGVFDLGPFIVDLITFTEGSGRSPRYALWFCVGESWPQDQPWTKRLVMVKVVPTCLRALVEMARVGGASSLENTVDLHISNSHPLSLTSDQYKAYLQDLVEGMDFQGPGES
Technique: protein-binding microarray
Form: double-stranded DNA, one strand shown
Sample: in vitro
Concentration: 2540 nM top
Notes: 60-bp whole probe
Added: salmon DNA 0.4 mg/ml
Reference: random background probes
Direction: higher = stronger binding
All sequences stand within: GCCTAGCAC … GTCTTGATTCGCTTGACGCTGCTG
Strand | fitted relative affinity
TTAGGACTGCTCCTGCTTTAGTGCTAG | -0.477 z-score
TTAGAGCTCAGTATCGATTAGTGCTAG | 0.666 z-score
TTACGTATCGGGACTGGGTTAGTGCTA | 1.54 z-score
GACGATCTCAGTATCGAAACGTGCTAG | 1.36 z-score
GACGGACTGGTCACTGGGGACGTGCTA | -0.653 z-score
GTACCACTCCAGTTCTGGGAGTGCTAG | 1.25 z-score
TTAGGTTTCGGTCTCGGTTGGTGCTAG | 8.47 z-score
GTGACTCAGCACTTTGGCATGGTGCTA | -0.564 z-score
TCACTTCTCGAGTGCCGGACTGTGCTA | 1.33 z-score
TGCTTCTAACAGAGGAGGTTGTGCTAG | -0.281 z-score
TTAGGTATCGGACTGGGTTTGTGCTAG | 1.06 z-score
TCAGTTCTGGGAAATATTACTGTGCTA | 0.57 z-score
TTATGTGTAGGTCTTAAATAGTGCTAG | -0.0964 z-score
TTAGGTTTCCATCTCCTTTAGTGCTAG | 8.9 z-score
TTAGGTTTCGGTATCGGCTAGTGCTAG | 8.25 z-score
GACGGTTTCCATCTCCTGACGTGCTAG | 8.14 z-score
TTTGGTCTCCTTTTCCTTTAGTGCTAG | 5.88 z-score
TCACACCTCTAGACTCTAACTGTGCTA | 0.0276 z-score
TAGTTTTACTTTCTATCTCTGTGCTAG | 6.66 z-score
AACTTTTTTTTTTCCCTGAAGTGCTAG | 1.57 z-score
TTAGGACTGGGACTGGATTAGTGCTAG | -0.711 z-score
GACGGTTTCAGGTTTCGGGACGTGCTA | 4.6 z-score
GACGGTATCCTTCTCTTGACGTGCTAG | 6.53 z-score
CTATATTAGGGAAGTGTGTTGTGCTAG | 0.427 z-score
TTAGGACTGGGGACTAGGTTAGTGCTA | -1 z-score
